{"data": "Published values from different studies", "note": "Lines come from different studies, so protocols differ. Several values in a cell are separate wells, animals, samples, runs or records. ± gives the spread as reported."}
{"SMILES": "CC[C@@H]1C(=O)N(C)c2cnc(Nc3ccc(C(=O)NC4CCN(C)CC4)cc3OC)nc2N1C1CCCC1", "cell line": "HD-MB03", "conditions": "with: ribociclib 5 µM", "how to read": "relative to: ribociclib over DMSO", "measurement": "fold change in IC50", "value": 1.29}
{"SMILES": "Cc1cc(O)ccc1Cl", "cell line": "SH-SY5Y", "test": "neurite outgrowth inhibition, phase-contrast imaging", "conditions": "24 h, nominal concentration", "measurement": "EC10", "value": "56400 nM"}
{"SMILES": "C[C@@H]1O[C@@H](O[C@@H]2C=C3CC[C@@H]4[C@H](CC[C@]5(C)[C@@H](c6ccc(=O)oc6)CC[C@]45O)[C@@]3(C)CC2)[C@H](O)[C@H](O)[C@H]1O", "cell line": "MYBPC3 iPSC cardiomyocytes", "test": "plate-normalised", "conditions": "concentration not given, 24 h, hit retest", "measurement": "MyBP-C level", "value": "11.3%"}
{"SMILES": "Cc1cc(C(C)(C)c2ccc(O)c(C)c2)ccc1O", "cell line": "HepG2 spheroids", "test": "Hoechst flow cytometry", "conditions": "40 µM, 24 h", "measurement": "G2 phase cells", "value": "19.8 ± 5.54%"}
{"SMILES": "C/C=C(/C)C(=O)O[C@H]1C(C)=C2[C@H]([C@@H]1OC(=O)CCCCCCC)[C@@](C)(OC(C)=O)C[C@H](OC(=O)CCC)[C@@]1(O)[C@H]2OC(=O)[C@@]1(C)O", "cell line": "HEK-293T", "test": "RNA-seq GSEA, measured: Hallmark TGF-beta signaling", "conditions": "500 nM, 6 h", "how to read": "direction not given", "measurement": "normalized enrichment score", "value": -1.15}
{"SMILES": "Nc1ncnc2c1ncn2[C@@H]1O[C@@H]2COP(=O)(O)O[C@H]3[C@@H](O)[C@H](n4cnc5c(=O)[nH]cnc54)O[C@@H]3COP(=O)(O)O[C@H]2[C@H]1O", "cell line": "HFF-1", "test": "RNA sequencing Reactome analysis, measured: Reactome R-HSA-9704646 defective HRR (PALB2, BRCA2/RAD51/RAD51C binding)", "conditions": "with: West Nile virus infection", "how to read": "relative to: West Nile virus infected cells, upregulated pathway", "measurement": "pathway fold enrichment", "value": 7.67}
{"SMILES": "Cc1nn(-c2nc3c(F)cc(F)cc3s2)c(O)c1C(c1ccc(C(F)(F)F)cc1)c1c(C)nn(-c2nc3c(F)cc(F)cc3s2)c1O", "cell line": "RAW-ISG", "test": "CCK-8", "conditions": "12.5 µM", "measurement": "viability", "value": "104% and 103% and 106% and 99.5% and 93.9%"}
{"SMILES": "Cn1nccc1Nc1nccc(-c2ccn([C@H](CO)c3ccc(Cl)c(F)c3)c(=O)c2)n1", "cell line": "HCT116", "test": "IncuCyte", "conditions": "concentration not given, 12 (unit not given)", "measurement": "PI-positive cells", "value": "4.25 count and 2.83 count and 3.25 count"}
{"SMILES": "COc1ccc([C@@H](O)c2cc(-c3ncnc4cc(N5CCOCC5)ccc34)c(F)cc2Cl)nn1", "cell line": "M12", "conditions": "100 nM, with: radiation 2.5 Gy", "measurement": "clonogenic survival", "value": "9 ± 2%"}
{"SMILES": "COc1ccc2c(c1)[nH]c1c(C)nccc12", "cell line": "DU-145", "test": "bisulfite pyrosequencing, measured: RASSF1A promoter CpG site 24", "conditions": "concentration not given", "how to read": "relative to: vehicle", "measurement": "methylation reduction", "value": "0%"}
{"SMILES": "O=c1cc(-c2ccccc2)oc2c(O)c(O)ccc12", "cell line": "SH-SY5Y Aβ-GFP cells, TRKB shRNA", "conditions": "5 µM", "measurement": "neurite branch number", "value": "1.3 to 1.5"}
{"SMILES": "O=C1CCP(=S)(c2ccccc2)CC1", "cell line": "SW480", "test": "Annexin V-FITC/PI flow cytometry", "conditions": "IC50, 72 h", "measurement": "late apoptotic cells", "value": "87.5%"}
{"SMILES": "CN1CCN(C2(CNC3CCN(c4cccc(-c5cc6cc(F)ccc6[nH]5)c4)CC3)CCC2)CC1", "cell line": "NCI-H460", "measurement": "GI50", "value": "2040 nM"}
{"SMILES": "C[C@@H]1C[C@@H]([C@H](O)CC2CC(=O)NC(=O)C2)C(=O)[C@@H](C)C1", "cell line": "LDR", "test": "silenced CMV-GFP reporter derepression, qHTS", "measurement": "Emax", "value": "32%"}
{"SMILES": "O=c1c(O)c(-c2ccc(O)c(O)c2)oc2cc(O)cc(O)c12", "cell line": "SH-SY5Y Aβ-GFP cells, scrambled shRNA", "conditions": "5 µM", "measurement": "neurite branch number", "value": "1.8 to 2.1"}
{"SMILES": "Oc1ccc(C2(c3ccc(O)cc3)c3ccccc3-c3ccccc32)cc1", "cell line": "HepG2 spheroids", "test": "Hoechst flow cytometry", "conditions": "0.01 µM, 96 h", "measurement": "S phase cells", "value": "9.2 ± 2.56%"}
{"SMILES": "COc1c(CCC[P+](c2ccccc2)(c2ccccc2)c2ccccc2)cc2c(c1OC)OCO2.[I-]", "cell line": "RPMI-8226", "test": "SRB", "measurement": "GI50", "value": "-6.63 log M"}
{"SMILES": "CC(C)N1CCC(NC2CCN(c3cccc(-c4cc5cc(F)ccc5[nH]4)c3)CC2)CC1", "cell line": "SF-539", "measurement": "GI50", "value": "1730 nM"}
{"SMILES": "COc1cc(CCC[P+](c2ccccc2)(c2ccccc2)c2ccccc2)c(OC)c2c1OCO2.[I-]", "cell line": "RPMI-8226", "test": "SRB", "measurement": "TGI", "value": "-5.73 log M"}
{"SMILES": "COc1c(C)c2c(c(O)c1C/C=C(\\C)CCC(=O)O)C(=O)OC2", "cell line": "IMR-90", "test": "cell proliferation", "system": "lung cancer", "measurement": "IC50", "value": "851 nM"}
